Experimental data gathered from unrelated publications.
Every numbered part comes from another study and shows a few of its results, in no order. Positions count from the first letter of the parent shown.

Set 1
Target: CREBRF, bZIP domain (human)
Technique: DHFR protein complementation
Medium: yeast
Notes: single substitutions, most at no-binding floor
Baseline: wild-type JUN-FOS pair
Reading: higher = stronger binding
Starting sequence: JUN, bZIP domain (human); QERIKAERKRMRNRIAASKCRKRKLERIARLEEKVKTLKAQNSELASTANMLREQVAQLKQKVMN; partner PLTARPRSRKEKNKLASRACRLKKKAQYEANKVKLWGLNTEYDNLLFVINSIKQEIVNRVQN
`E44M` gave a binding fitness of -1.48 natural log.
`E44D` has a binding fitness of -1.5 natural log.
The binding fitness of `A46G` is reported as -1.46 natural log.
The binding fitness of `S47V` is reported as -1.39 natural log.
`A29C` gave a binding fitness of -1.4 natural log.
`T48Y` gave a binding fitness of -1.54 natural log.
`E44F` has a binding fitness of -1.5 natural log.
For `A46Q`, the binding fitness was -1.49 natural log.
For `N42M`, the binding fitness was -1.46 natural log.
The binding fitness of `S43N` is reported as -1.59 natural log.
`K34Y` has a binding fitness of -0.973 natural log.
With `Q41F` the binding fitness was -1.52 natural log.
With `I28D` the binding fitness was -1.55 natural log.
The binding fitness of `K34W` is reported as -1.49 natural log.
The binding fitness of `K36A` is reported as -1.48 natural log.
`L31I` gave a binding fitness of -1.46 natural log.
The binding fitness of `E33M` is reported as -1.47 natural log.
`L45V` has a binding fitness of -1.54 natural log.

Set 2
Target: Protein C-ets-1 (ETS1, Homo sapiens, UniProt P14921, residues 1-441, full length assumed)
Technique: protein-binding microarray
Form: double-stranded DNA, one strand shown
Medium: in vitro
Tested at: not given
Notes: k-mer, scored over probes, only values ≥0.25
Reading: higher = stronger binding
Construct (chain): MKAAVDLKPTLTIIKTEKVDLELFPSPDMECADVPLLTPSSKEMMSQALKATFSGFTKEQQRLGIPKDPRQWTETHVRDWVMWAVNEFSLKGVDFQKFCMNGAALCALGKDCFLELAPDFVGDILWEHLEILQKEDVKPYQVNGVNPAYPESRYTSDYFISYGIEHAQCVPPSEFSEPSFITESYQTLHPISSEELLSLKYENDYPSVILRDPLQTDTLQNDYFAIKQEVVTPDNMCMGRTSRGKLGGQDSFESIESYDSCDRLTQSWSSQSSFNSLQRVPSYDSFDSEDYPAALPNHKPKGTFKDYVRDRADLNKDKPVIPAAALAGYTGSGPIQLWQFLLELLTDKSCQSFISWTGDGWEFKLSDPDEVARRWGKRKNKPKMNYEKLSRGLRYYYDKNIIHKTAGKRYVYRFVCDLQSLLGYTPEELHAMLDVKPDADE
The E-score of `GAGACGGA` is reported as 0.318.
The E-score of `CGGATACA` is reported as 0.434.
With `TACGGATA` the E-score was 0.289.
`GCCCGGAC` gave an E-score of 0.341.
For `AATTCCGG`, the E-score was 0.426.
With `ACTCTTCC` the E-score was 0.328.
`GACCTTCC` gave an E-score of 0.264.
For `ATTCCGCC`, the E-score was 0.322.
`CCATTTCC` gave an E-score of 0.447.
The E-score of `ACTTCCTC` is reported as 0.455.
The E-score of `CGGGAACC` is reported as 0.256.
For `GGAAGGAC`, the E-score was 0.374.
`GACTTTCC` gave an E-score of 0.251.
`CTCCATCC` has an E-score of 0.291.
The E-score of `CCGGTCCC` is reported as 0.296.
`GGAACTCA` gave an E-score of 0.282.

Set 3
Target: Interferon regulatory factor 7, full length, phosphomimetic (IRF7, Homo sapiens, UniProt Q92985, residues 1-503, S471D/S472D/S475D/S476D/S477D/S483D/S484D/S487D)
UniProt Q92985, sequence (whole entry, unmodified, looked up): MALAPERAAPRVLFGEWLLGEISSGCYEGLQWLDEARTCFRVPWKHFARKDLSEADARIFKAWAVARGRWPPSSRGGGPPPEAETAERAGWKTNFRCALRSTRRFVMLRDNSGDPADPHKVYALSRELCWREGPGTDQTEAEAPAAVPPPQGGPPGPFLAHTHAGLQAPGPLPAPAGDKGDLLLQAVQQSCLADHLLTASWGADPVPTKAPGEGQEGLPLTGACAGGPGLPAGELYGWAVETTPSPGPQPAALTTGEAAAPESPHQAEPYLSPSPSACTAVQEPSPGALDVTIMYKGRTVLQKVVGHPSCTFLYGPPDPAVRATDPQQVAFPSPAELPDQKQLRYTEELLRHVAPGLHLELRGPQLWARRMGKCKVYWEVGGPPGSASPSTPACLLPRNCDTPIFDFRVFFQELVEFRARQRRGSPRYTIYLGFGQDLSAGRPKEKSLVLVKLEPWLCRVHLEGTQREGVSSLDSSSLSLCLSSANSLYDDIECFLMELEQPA
Technique: protein-binding microarray
Form: double-stranded DNA, one strand shown
Medium: in vitro
Tested at: 2200 nM top
Notes: 60-bp whole probe
Together with: salmon DNA 0.4 mg/ml
Baseline: random background probes
Reading: higher = stronger binding
Shared flanks, not repeated: GCCTAGCAC … GTCTTGATTCGCTTGACGCTGCTG
For `TTAGGTTTCGTTTTCCTTTAGTGCTAG`, “fitted relative affinity” read 13.1 z-score.
`TTAGGTTTCCTACTGGTTTAGTGCTAG`: “fitted relative affinity” 1.2 z-score.
`TTTTTTTTTTTTTACTTCGGGTGCTAG`: “fitted relative affinity” 2.38 z-score.
`GACGATCTGGGGACTGGAGACGTGCTA` — result for “fitted relative affinity”: -0.14 z-score.
For `TTAGGTATCGGTATCGGGTAGTGCTAG`, “fitted relative affinity” read 0.739 z-score.
For `TTAGGACTGCTGCTCCTTTAGTGCTAG`, “fitted relative affinity” read 0.129 z-score.
`TCATGTTTGGTTCTGATACTGTGCTAG`: “fitted relative affinity” 1.84 z-score.
`GACGGACTGGGGTATCGGGTCGTGCTA`: “fitted relative affinity” -0.254 z-score.
Under “fitted relative affinity”, `TTAGGACTGCTTTTCCTTTAGTGCTAG` is recorded as 1.72 z-score.
`TCACCTCTCCTCTCAGGAACTGTGCTA`: “fitted relative affinity” 1.37 z-score.
For `TTAGATCTCAGTTCCGATTAGTGCTAG`, “fitted relative affinity” read 0.903 z-score.
Under “fitted relative affinity”, `TCTCCTCTAGGTTCTCTGAGAGTGCTA` is recorded as 0.935 z-score.

Set 4
Molecule: PhoQ, residues 284 288 289 292 302 303 SNSSNI
Technique: Sort-seq
Refers to: YFP reporter
Medium: E. coli
Notes: PhoQ-PhoP variant library
Together with: 10 µM Mg2+
Baseline: high Mg2+ state
Reading: higher = stronger signaling
It gave 3.09 for fold induction (PhoP, residues 12 14 15 18 19 ICWRQ (Escherichia coli, UniProt P23836)).
It gave 7.41 for fold induction (PhoP, residues 12 14 15 18 19 VHTVL (Escherichia coli, UniProt P23836)).
For PhoP, residues 12 14 15 18 19 TQCLL (Escherichia coli, UniProt P23836): fold induction read 6.26.

Set 5
Target: ABI1, truncated, D143A, DHFR fusion (Arabidopsis thaliana)
Technique: DHFR PCA, deep sequencing
Medium: yeast
Notes: methotrexate growth selection, single substitutions
Together with: (+)-ABA 17 µM
Baseline: wild-type fitted maximum
Reading: higher = stronger binding
Starting sequence: PYL1, truncated, DHFR fusion (Arabidopsis thaliana); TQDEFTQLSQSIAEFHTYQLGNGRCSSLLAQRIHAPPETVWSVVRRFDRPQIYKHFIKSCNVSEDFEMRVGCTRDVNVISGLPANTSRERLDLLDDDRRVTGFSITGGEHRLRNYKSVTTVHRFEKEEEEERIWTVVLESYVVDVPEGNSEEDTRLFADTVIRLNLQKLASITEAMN; partner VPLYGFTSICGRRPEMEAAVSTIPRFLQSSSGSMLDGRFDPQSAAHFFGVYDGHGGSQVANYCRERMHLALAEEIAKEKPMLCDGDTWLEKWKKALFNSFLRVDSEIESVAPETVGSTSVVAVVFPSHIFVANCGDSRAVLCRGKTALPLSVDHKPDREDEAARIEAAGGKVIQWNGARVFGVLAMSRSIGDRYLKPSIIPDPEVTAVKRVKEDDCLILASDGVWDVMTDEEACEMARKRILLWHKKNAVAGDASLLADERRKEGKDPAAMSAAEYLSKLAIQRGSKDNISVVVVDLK
For `L156P`, “relative binding score” read -22.9%.
`C25P` — result for “relative binding score”: 6.34%.
`I33R`: “relative binding score” 4.79%.
Under “relative binding score”, `V121F` is recorded as -2.05%.
`L82Y` — result for “relative binding score”: 11.7%.
For `R90T`, “relative binding score” read 68.5%.
`V121G` — result for “relative binding score”: 4.99%.
`R46D` — result for “relative binding score”: 27.8%.
Under “relative binding score”, `V136Y` is recorded as 68.4%.
For `D159P`, “relative binding score” read -7.49%.
`D97I` — result for “relative binding score”: 84%.
`W134S`: “relative binding score” 103%.
Under “relative binding score”, `F47S` is recorded as -6.57%.
Under “relative binding score”, `R113K` is recorded as 101%.
For `G81K`, “relative binding score” read 2.22%.

Set 6
Target: Sal-like protein 4, full length isoform A (SALL4, Homo sapiens, UniProt Q9UJQ4, residues 1-1053)
UniProt Q9UJQ4, sequence (whole entry, looked up): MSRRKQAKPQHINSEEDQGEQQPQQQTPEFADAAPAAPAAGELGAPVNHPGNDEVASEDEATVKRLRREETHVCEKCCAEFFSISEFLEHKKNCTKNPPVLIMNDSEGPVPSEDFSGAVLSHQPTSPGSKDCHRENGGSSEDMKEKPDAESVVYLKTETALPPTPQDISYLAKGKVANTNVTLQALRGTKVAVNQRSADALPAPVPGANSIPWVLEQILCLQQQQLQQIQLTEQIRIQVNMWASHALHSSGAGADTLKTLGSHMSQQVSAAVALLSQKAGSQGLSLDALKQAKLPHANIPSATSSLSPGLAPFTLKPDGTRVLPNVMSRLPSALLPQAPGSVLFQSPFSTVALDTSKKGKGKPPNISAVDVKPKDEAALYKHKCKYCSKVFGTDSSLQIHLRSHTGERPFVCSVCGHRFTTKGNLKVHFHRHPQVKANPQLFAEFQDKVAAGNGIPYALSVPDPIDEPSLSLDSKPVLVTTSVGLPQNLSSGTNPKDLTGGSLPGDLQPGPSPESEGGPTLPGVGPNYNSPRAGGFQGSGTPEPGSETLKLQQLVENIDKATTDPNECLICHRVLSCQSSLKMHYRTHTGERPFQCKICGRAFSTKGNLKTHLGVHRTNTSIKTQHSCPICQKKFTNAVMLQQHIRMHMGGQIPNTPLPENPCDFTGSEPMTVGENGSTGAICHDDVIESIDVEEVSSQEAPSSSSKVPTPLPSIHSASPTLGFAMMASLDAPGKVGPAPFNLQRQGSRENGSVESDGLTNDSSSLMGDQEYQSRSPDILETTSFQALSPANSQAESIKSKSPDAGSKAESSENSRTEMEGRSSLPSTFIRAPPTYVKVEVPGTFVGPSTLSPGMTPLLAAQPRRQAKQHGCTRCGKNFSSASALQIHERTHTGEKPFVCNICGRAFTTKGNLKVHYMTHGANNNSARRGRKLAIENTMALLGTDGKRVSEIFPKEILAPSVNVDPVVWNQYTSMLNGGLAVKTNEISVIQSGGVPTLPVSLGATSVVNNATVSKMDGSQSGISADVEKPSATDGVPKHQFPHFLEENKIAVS
Technique: universal PBM
Form: double-stranded DNA, one strand shown
Medium: in vitro
Tested at: 600 nM
Notes: 8-mer, flanks averaged, mean of replicates
Reading: higher = stronger binding
For `GCGCCATA`, the E-score was -0.00332.
`ATCCAAAA` gave an E-score of 0.232.
`AAAGCGGT` has an E-score of -0.0543.
The E-score of `ACTCCTGG` is reported as -0.301.
For `ACCGTCCG`, the E-score was -0.241.
`GACAAAGC` gave an E-score of 0.0196.
The E-score of `AACGCCTT` is reported as -0.0208.
The E-score of `CGCTATAA` is reported as 0.151.
`AGTCTAGC` gave an E-score of -0.106.
The E-score of `CGCTCGAA` is reported as -0.035.
The E-score of `AACTAGCC` is reported as -0.116.
With `AACCCGCA` the E-score was -0.124.
With `CATAACAC` the E-score was 0.302.
`AACGTATC` has an E-score of -0.0712.
`AGGCGCGC` has an E-score of -0.173.
`GTACCTAA` has an E-score of 0.0313.
With `CAAGAATG` the E-score was -0.0267.
`ACCTCACG` has an E-score of -0.179.
`TACAAGTA` has an E-score of 0.257.
`ATGTAGGC` has an E-score of -0.0138.
`AGGCAGCG` has an E-score of -0.295.
With `GAACTACA` the E-score was -0.0862.
For `CTCCGTGA`, the E-score was -0.18.
`AACTTGCG` has an E-score of -0.149.
`CCGGGTAC` gave an E-score of -0.37.

Set 7
Target: CCNA1, cyclin fold, Cln2 fusion (human)
Technique: yeast growth competition, sequencing
Medium: yeast
Notes: weak parent motif
Baseline: not given
Reading: higher = stronger binding
Starting sequence: ANKRD17 docking peptide (human); PSVRRQLFVTVVK; partner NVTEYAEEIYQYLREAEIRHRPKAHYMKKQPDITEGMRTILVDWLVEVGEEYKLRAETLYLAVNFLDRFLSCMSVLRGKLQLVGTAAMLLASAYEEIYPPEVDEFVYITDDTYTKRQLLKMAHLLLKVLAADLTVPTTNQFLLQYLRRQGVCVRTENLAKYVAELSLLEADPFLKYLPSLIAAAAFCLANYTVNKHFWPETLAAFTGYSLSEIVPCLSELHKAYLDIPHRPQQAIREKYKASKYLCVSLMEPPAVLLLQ
`P1A` — result for “normalised enrichment score”: 0.459.
Under “normalised enrichment score”, `F8L` is recorded as 0.238.
For `R5A L7A`, “normalised enrichment score” read 0.235.
`S2A`: “normalised enrichment score” 0.474.
Under “normalised enrichment score”, `V9A` is recorded as 0.264.
`R4A`: “normalised enrichment score” 0.325.
For `R5K`, “normalised enrichment score” read 0.066.
For `V3A`, “normalised enrichment score” read 0.676.
`R5A`: “normalised enrichment score” 0.682.
For `T10A`, “normalised enrichment score” read 0.798.
